Experimental data collected from several papers.
Compare with care: the assays were run in different laboratories. Several values in a cell are separate wells, animals, samples, runs or records. Numbers after ± are the reported error.

C=CC(=O)Nc1cc(Nc2nccc(-c3cn(C)c4ccccc34)n2)c(OC)cc1N(C)CCNC — recovery (storage stability; human dried blood spot; 2 h, on ice, LLOQ level): 102%
O=C(Nc1cnccc1-c1ccc([18F])nc1)c1ccnc(NC(=O)C2CC2)c1 — SUV (FVB/NJ mice (both sexes), spleen; intravenous, dose not given, 120 min, added: tariquidar 15 mg/kg i.v. pre-dose): 0.318
C[N+](C)(CCOCCOCCOCCNC(=S)Nc1ccc(C[C@H]2CN(CC(=O)[O-])CCN(CC(=O)[O-])CCN2CC(=O)[O-])cc1)C[c-]1cccc1.[64Cu+2].[Fe+2].c1cc[cH-]c1 — weighted blood half-life (healthy nude mice, blood; intravenous, dose not given): 0.183 h
CCCCN1C(=O)c2cccc3c(NCCCCCCCCCCN4CCOCC4)ccc(c23)C1=O — Stokes shift (acetonitrile): 91 nm
[11CH3]N1CCC(NC(=O)c2cc(-c3c(O)cc(O)cc3Oc3ccc([N+](=O)[O-])cc3)on2)CC1 — standardized uptake value (healthy female Wistar rats, kidneys; intravenous, 60 min): 3 ± 0.7 g/mL
CN(Cc1cc(C2CC2)on1)C(=O)c1cccc(-c2ccc(F)cc2)c1 — remaining compound (male ICR/CD-1 mouse, liver microsomes; 2 µM, 5 min, pH 7.5, added: 1-aminobenzotriazole 500 µM, preincubated 30 min): 89.6%
O=C1c2sc(-c3ccc(N4CCC(CO)CC4)nc3F)nc2CCN1c1cccnc1 — concentration (CD1 mouse, plasma; i.v., dose not given, 0.083 h): 875 ng/mL and 617 ng/mL and 585 ng/mL
N#C[C@@H]1CC(F)(F)CN1C(=O)CNC(=O)c1ccnc2c(NC(=O)C(N)CCCCNC(=O)CCOCCOCCOCCOCCOCCOCCNC(=O)CN3CCN(CC(=O)[O-])CCN(CC(=O)[O-])CCN(CC(=O)[O-])CC3)cccc12.[68Ga+3] (stereo partly drawn) — radiochemical stability (human serum; 60 min, 37 °C, 68Ga-labelled): 99.08 ± 0.2%
N[C@@H](CNC(=O)N[C@@H](CS)C(=O)NCC(=O)O)C(=O)O — brain exposure per dose (mouse C57BL/6, brain homogenate; intranasal, 10 mg per mouse, 2 h): 66.5 ± 3.67 µM·h/dose
COC1CN([C@H]2CC[C@H]([C@@]3(C)Oc4c(Cl)cc(C(=O)NCc5c(SC)cc(C)[nH]c5=O)c(C)c4O3)CC2)C1 — log2 fold change (RNA-seq, measured: KIFC3; human, whole blood; dose not given, 24 h; baseline: pretreatment baseline): 2.8
COc1cc(-c2nc3ccccc3s2)cc(CN2CCN(CC(=O)O)CCN(Cc3cc(-c4nc5ccccc5s4)cc(OC)c3O)CC2)c1O — pKa3 (UV-vis spectrophotometric titration; aqueous NaCl 0.1 M; 20 µM, 25 °C, pH 3 to 11): 8.48
CC(C)C[C@@H](NC(=O)[C@H](NC(=O)[C@H]1CCCN1)[C@H](C)O)C(=O)N[C@H](Cc1c[nH]cn1)C(=O)N[C@@H](C(=O)N[C@H](Cc1c[nH]cn1)C(=O)N[C@H](CC(N)=O)C(=O)N[C@H](CCCNC(=N)N)C(=O)N[C@H](CCCNC(=N)N)C(=O)N[C@H](CCCNC(=N)N)C(=O)N[C@H](CCCNC(=N)N)C(=O)N[C@H](CCCNC(=N)N)C(N)=O)[C@H](C)O — glucose (Beagle dog, blood; oral, 30 mg/kg daily, 3 months): 5.1 mmol/L
O=C(NCC1OC2CCC=CCCC2O1)c1ccc([18F])nc1 (stereo not drawn) — tissue uptake (healthy female BALB/c nude mice, bone; intravenous, 7.4 MBq per mouse, 5 min): 1.5 ± 0.6 %ID/g
CCCCN1C(=O)c2cccc3c(NCCCCCN4CCOCC4)ccc(c23)C1=O — Stokes shift (DMF): 86 nm
C=C(NC(=O)c1csc(-c2nc3c(cc2O)-c2nc(cs2)C(=O)NC(C(C)O)C(=O)NC(=C(C)OC)c2nc(cs2)C(=O)NC2c4nc(cs4)C(=O)NC(COC(=O)c4c5c6c(cccc6n4O)COC(=O)C(OC4CC(C)(O)C(N(C)C)C(C)O4)C2OC5)c2nc-3cs2)n1)C(N)=O (stereo not drawn) — AUC(0-t) (ICR mice, Streptococcus pneumoniae ATCC 49169 infected, immunocompromised, blood; intravenous, 8 mg/kg/day three times daily): 873 ng·h/mL
CCCCN1C(=O)c2cccc3c(NCCCCCCN4CCOCC4)ccc(c23)C1=O — Stokes shift (chloroform): 83 nm
N#C[C@@H]1CC(F)(F)CN1C(=O)CNC(=O)c1ccnc2c(NC(=O)[C@H](CCCCNC(=O)CCOCCOCCOCCOCCOCCOCCNC(=O)CN3CCN(CC(=O)[O-])CCN(CC(=O)[O-])CCN(CC(=O)[O-])CC3)NC(=O)CCCc3ccc(I)cc3)cccc12.[177Lu+3] — radiochemical stability (PBS; 4 h, 37 °C, 177Lu-labelled): 98.5 ± 0.5%
CCCCN1C(=O)c2cccc3c(NCCCCCCCCN4CCOCC4)ccc(c23)C1=O — Stokes shift (methanol): 98 nm
O=C1c2sc(-c3ccc(N4CCC(F)C4)nc3F)nc2CCN1c1cccnc1 (stereo not drawn) — concentration (CD1 mouse, plasma; i.v., dose not given, 1 h): 31.8 ng/mL and 29.8 ng/mL and 32 ng/mL
CCCCN1C(=O)c2cccc3c(NCCCN4CCOCC4)ccc(c23)C1=O — Stokes shift (DMSO): 92 nm
C=CC(=O)N1CCCC(n2c(=O)c3ncccc3n(Cc3ccc(Oc4ccccc4)cc3)c2=O)C1 (stereo not drawn) — plasma concentration (male BALB/c mouse, plasma; oral, 200 mg/kg, 0.5 h): 32200 ng/mL
CNC(=O)C1CCCN(C(=O)C2CC3CCC2N3C(=O)[C@@H]2C[C@@H](O)CN2C(=O)NCc2cccc(Cl)c2F)C1 (mixture of isomers) — 6β-hydroxytestosterone formation (CYP3A4 (human); inhibitor, time-dependent inhibition; 5.56 µM, preincubated without NADPH, added: testosterone substrate): 174 ng/mL
C#CCCCC(O)/C=C/C(=O)NC1(c2ccc(-c3nc4ccn5c(=O)[nH]nc5c4cc3-c3ccccc3)cc2)CCC1 (stereo not drawn) — first-order rate constant (microsomes, liver, mouse CD-1; 1 µM, pH 7.4, 37 °C, phosphate buffer 100 mM, added: NADPH): -0.024 ± 0.001 min⁻¹
CC1(C)CC[C@@]2(CO)C(=C3C=C[C@@H]4[C@@]5(C)CC[C@H](O)[C@@](C)(CO)[C@@H]5CC[C@@]4(C)[C@]3(C)C[C@@H]2O)C1 — plasma concentration (UHPLC-MS/MS; mouse, plasma; oral, 50 mg/kg of saikosaponin a, 12 h): 0 ng/mL
CCCC[C@H](OC(C)=O)c1ccccc1C(=O)O — Cavg (beagle dogs, both sexes, whole blood; intravenous, 1.5 mg/kg, 7 days): 57 ± 17 ng/mL
CNc1cc(C)c(C(N)=O)cn1 — plasma concentration (Han Wistar rats, male, plasma; oral, 30 mg/kg, 1.00 h): 97 µM
CC(C)Cc1ccc(C(C)C(=O)N[C@@H](CCCCNC(=O)CCOCCOCCOCCOCCOCCOCCNC(=O)CN2CCN(CC(=O)[O-])CCN(CC(=O)[O-])CCN(CC(=O)[O-])CC2)C(=O)Nc2cccc3c(C(=O)NCC(=O)N4CC(F)(F)C[C@H]4C#N)ccnc23)cc1.[177Lu+3] (stereo partly drawn) — radiochemical stability (human serum; 24 h, 37 °C, 177Lu-labelled): 96.3 ± 1%
O=C(O)CCCOc1ccc([18F])cc1-c1cc(-c2ccccc2C(F)(F)F)n(-c2ccccc2)n1 — absorbed dose (OLINDA/EXM from mouse data; human adults, brain): 4.51 µGy/MBq
CN(O)C(=O)CCC(=O)NCCCN(CCCCN(CCCNC(=O)CCC(=O)N(C)O)C(=O)CCC(=O)N(C)O)C(=O)CCC(=O)N(C)O.[89Zr] — intact compound (PBS; 7 days, pH 7, 37 °C): 97.7 ± 0.8%
CC(C)(O)c1ncc([S@](N)(=O)=NC(=O)Nc2c3c(cc4c2CCC4)CCC3)s1 — subjects with adverse events (measured: general and administration-site disorders; healthy human volunteers; oral, 200 mg once daily, 14 days, spray-dried dispersion): 14%
CC(C)(C)C(=O)Nc1ccc2[nH]c(CN3CCC(N(CCCN4CCOCC4)CC4OC(n5cnc6c(N)ncnc65)C(O)C4O)CC3)nc2c1 (stereo not drawn) — concentration (male Sprague-Dawley rat, plasma; intraperitoneal, 20 mg/kg, 4 h): 53 ng/mL
COc1cccc(OC)c1-c1cc(C(=O)NC2(C(=O)O)C3CC4CC(C3)CC2C4)nn1-c1ccc(C(=O)NCCNC(=O)[C@H](CCCCNC(=O)[C@H](CC(C)C)NC(=O)C2OC2C(=O)O)NC(=O)CN2CCN(CC(=O)[O-])CCN(CC(=O)[O-])CCN(CC(=O)[O-])CC2)cc1C(C)C.[177Lu+3] (mixture of isomers) — tissue uptake (mouse, HT-29 xenograft, HT-29 tumour; 4 h post injection): 11.6 %ID/g
CN([O-])C(=O)CN1CCN(CC(=O)N(C)[O-])CCN(Cc2ccccn2)CC1.[89Zr+4] — tracer uptake (mouse, muscle; intravenous, 1 h): 0.86 %ID/g
CC[C@H](C)[C@H](NC(=O)[C@H](CCCNC(=N)N)NC(=O)[C@H](Cc1c[nH]cn1)NC(=O)[C@@H](N)[C@@H](C)O)C(=O)N[C@@H](CC(C)C)C(=O)N[C@@H](CCCNC(=N)N)C(=O)N[C@@H](CCCNC(=N)N)C(=O)N[C@@H](CC(C)C)C(=O)N[C@@H](Cc1ccccc1)C(=O)N[C@@H](CC(N)=O)C(=O)N[C@@H](CC(C)C)C(=O)N[C@@H](CS)C(N)=O — brain concentration (male C57BL/6J mouse; intraperitoneal, 10 mg/kg, 1 min): 0.0017 µM
Cc1cc(C(=O)NC(C)(C)CO)cc(C)n1 — plasma peak area (LC-MS metabolite profiling; Sprague-Dawley rat, both sexes, plasma; oral, 100 mg/kg of parent drug, 24 (unit not given); higher = more metabolite): 15300 a.u.
C=CC(=O)N1CCC[C@@H](c2ccc(C(N)=O)c3[nH]ccc23)C1 — trough concentration (mouse, TMD8 tumour-bearing, plasma; 7.5 mg/kg twice daily, 12 h): 0 ng/mL
CCOc1ccc(Nc2ncnc3[nH]c(/C=C/c4ccc(OC)c(OC)c4)nc23)cc1 — purity (HPLC; solution, dark; before light exposure): 99.6%
C/C(N)=N/C(=N\S(=O)(=O)c1ccc(C(F)(F)F)cc1)N1C[C@H](c2ccccc2)C(c2ccc(Cl)cc2)=N1 — half-life (male C57BL/6 mouse, plasma; intravenous, 10 mg/kg): 2.6 h
COCC1CN(C2CCN(c3cc(OC)c(Nc4ncc(Br)c(Nc5ccc6c(c5P(C)(C)=O)OCCO6)n4)cc3C)CC2)C1 — AUC(0-t) (EGFR-mutant NSCLC patients, plasma; oral, 10 mg single dose, geometric mean): 521 ng·h/mL
CC(C(=O)O)n1nc(Cn2cc3cc(OCC[18F])c(Cl)cc3n2)c2ccccc2c1=O (racemic) — tracer uptake (rat, muscle; 30 min): 0.05 %ID/g
Cc1nc(N)nc2c1C(=O)N[C@@H](c1ccc(F)cc1-c1cccc(O[11CH3])n1)C2 — tracer uptake (ex vivo biodistribution; healthy mice, intestines; 60 min post-injection, baseline, vehicle pre-treatment): 20.7 ± 1.9 %ID
COc1cccc(OC)c1-c1cc(C(=O)NC2(C(=O)O)C3CC4CC(C3)CC2C4)nn1-c1ccc(C(=O)N(C)CCOCCN(C)C(=O)[C@H](CCCCNC(=O)[C@H](CC(C)C)NC(=O)C2OC2C(=O)O)NC(=O)CN2CCN(CC(=O)[O-])CCN(CC(=O)[O-])CCN(CC(=O)[O-])CC2)cc1C(C)C.[177Lu+3] (mixture of isomers) — tumour-to-stomach ratio (mouse HT-29 xenograft; 4 h, biodistribution; baseline: tumour over stomach): 5.69
OCC1OC(n2cnc3c(NCc4ccc(Br)s4)ncnc32)C(O)C1O (stereo not drawn) — fraction unbound (equilibrium dialysis; dog plasma; 0.5 µg/mL, 4 h, pH 7.4): 0.137
O=C(Nc1cnccc1-c1ccc([18F])cc1)c1ccnc(NC(=O)C2CC2)c1 — SUV (ex vivo gamma counting; GSK-3β transgenic mice, early-stage, cortex; intravenous, 120 min, mean, no P-gp inhibitor): 0.03
O=C(O)c1c(O)cc(O[C@@H]2O[C@H](CO)[C@@H](O)[C@H](O)[C@H]2O)cc1/C=C/c1ccccc1 — serum AST (FVB mouse; 40 mg/kg, 2 weeks; baseline: vehicle): no effect
